Published values from different studies.
Each numbered part is a random draw from the data of one study; scales do not carry over between parts. Substitutions count along the parent as printed.

Set 1
Target: RNA binding protein fox-1 homolog 2, RRM domain, GST-SBP tag (RBFOX2, Homo sapiens, UniProt O43251-10, residues 100-194)
Method: RNA Bind-n-Seq
Molecule type: RNA
Sample: in vitro
Tested at: 365 nM
Notes: natural RNA segment, single round, ends assumed
Baseline: no-protein control
Direction: higher = stronger binding
Endpoint: RBNS enrichment (R)
Shared flanks, not repeated: GGGAGUUCUACAGUCCGACGAUC … UGGAAUUCUCGGGUGCCAA
Target sequence (chain): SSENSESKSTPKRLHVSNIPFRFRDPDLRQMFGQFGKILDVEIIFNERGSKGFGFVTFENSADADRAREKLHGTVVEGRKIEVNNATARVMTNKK
GGACCUGCUCUUCUCUAGUUCCAGAUCCUGAUGCUAAUUAAUCUCCUCCAGGACACCACAGUCCUUGCCCUACCACACCACAAGUAUUUGGGGGCUCAGCCCUGCCCGGU: 0.543
CCAGCUUCAGUGUGCAGGCUCUGAGGCUGCCCAGGACGGGAAAGUCCAAGGAAGGGGCCUGGUGGUGCUCCACUUGCAGUUCUUUAAAGAAUGCUGCUUUUUAUUCUCCU: 0.391
AGAGAAGGGCUUUGUAAAUAGCAUUUAAUGUUAAGAACAUCUGCAUUCUCUUUGUAGCUGAGUGCGUGGCUUUGAAAGUUGUGGAGGAAUUAAUACAGACACCAGAUUUU: 0.716
UAAAUGAUGUUUCUUCUGCAACUGGCUACUCCUCUUAUAUUAAUGCAUACACUUUUGUAAAGAAGUAAUUUUUAUGAUAAAAAAACUUUGUAAAAGUAUGAUGUAAAUUU: 0.582
CACUGCCUUCGUGAAGGAUGCUCCGAGCCAUGAAACAUGUUCCUAGAUGUCGUUAAUCCCACCCACGUCCACCAUGACAGGCCUGUGUCAGCCUCCCUGAAACACAGCAG: 0.477
CACACCUCAUCUCACCCAAGAGUAUUUCCCAAGUCUGCAGCUUCCGUCAGCGAUUGUUGUGUUACCUUCUGGUGUUCCCUCACUGAUUGUGGACAAACCUGGCAGUUGAG: 0.282
CUUUUUGAAGAUUAGGUGGUUUUGCUCUUUAACAUUUUUGUGACUUUGGUUUAUUUUCUUCCCAUGUCGCCCAGAGAUUACUUGUGUGUGUGCCAUUCUGCUCAAAACUA: 0.33
GUGAACAAUCUGGGUAAAAGGCUACCUUUAAUUCUAAGCUUCAUUUUUUUUUGGGGGGGGGUUACAUUUUAAUCAUAAAUUCUUUUUUGCAAAGCCCAGGUUCUUGUUCC: 0.834

Set 2
Substance: PhoQ, residues 284 288 289 292 302 303 NLGVHL
Method: Sort-seq
Refers to: YFP reporter
Sample: E. coli
Notes: PhoQ-PhoP variant library
Added: 10 µM Mg2+
Baseline: high Mg2+ state
Direction: higher = stronger signaling
Endpoint: fold induction
PhoP, residues 12 14 15 18 19 QYCSL (Escherichia coli, UniProt P23836): 0.159
PhoP, residues 12 14 15 18 19 STHWV (Escherichia coli, UniProt P23836): 6.56
PhoP, residues 12 14 15 18 19 SHWTV (Escherichia coli, UniProt P23836): 20

Set 3
Target: POU domain, class 6, transcription factor 1, POU and homeodomain (POU6F1, Homo sapiens, UniProt Q14863, residues 311-611)
Method: protein-binding microarray
Molecule type: hairpin DNA
Sample: in vitro
Tested at: not given
Notes: whole hairpin DNA, median over replicate spots
Baseline: not given
Direction: higher = stronger binding
Endpoint: median fluorescence
Shared flanks, not repeated: GAGGCCATA … TATGGCCTCACACTCTT
Residues (chain): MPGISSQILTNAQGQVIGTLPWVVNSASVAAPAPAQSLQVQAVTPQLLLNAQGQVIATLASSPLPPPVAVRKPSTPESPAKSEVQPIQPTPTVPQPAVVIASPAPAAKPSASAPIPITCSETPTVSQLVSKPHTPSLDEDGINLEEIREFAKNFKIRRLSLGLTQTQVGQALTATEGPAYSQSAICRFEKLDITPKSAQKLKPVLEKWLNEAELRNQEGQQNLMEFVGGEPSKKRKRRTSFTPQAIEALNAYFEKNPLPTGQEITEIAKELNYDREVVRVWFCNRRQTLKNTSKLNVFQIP
CGGAGGTGCCTCCTGGCACCTCCG (5mC at 10 32): 332 a.u.
ATTAGCGGCCTCCTGGCCGCTAAT: 1470 a.u.
AGTAGGTGCCTCCTGGCACCTACT (5mC at 32): 851 a.u.
ATTACGTGCCTCCTGGCACGTAAT (5mC at 14): 975 a.u.
CGTAGGTGCCTCCTGGCACCTACG: 332 a.u.
ACGAGGTGCCTCCTGGCACCTCGT: 410 a.u.
ATAAGGTGCCTCCTGGCACCTTAT: 935 a.u.
ATGAGGTGCCTCCTGGCACCTCAT (5mC at 31): 1750 a.u.

Other studies, line by line
Starting sequence: PafA, mature enzyme, eGFP fusion (Elizabethkingia meningoseptica, UniProt Q9KJX5); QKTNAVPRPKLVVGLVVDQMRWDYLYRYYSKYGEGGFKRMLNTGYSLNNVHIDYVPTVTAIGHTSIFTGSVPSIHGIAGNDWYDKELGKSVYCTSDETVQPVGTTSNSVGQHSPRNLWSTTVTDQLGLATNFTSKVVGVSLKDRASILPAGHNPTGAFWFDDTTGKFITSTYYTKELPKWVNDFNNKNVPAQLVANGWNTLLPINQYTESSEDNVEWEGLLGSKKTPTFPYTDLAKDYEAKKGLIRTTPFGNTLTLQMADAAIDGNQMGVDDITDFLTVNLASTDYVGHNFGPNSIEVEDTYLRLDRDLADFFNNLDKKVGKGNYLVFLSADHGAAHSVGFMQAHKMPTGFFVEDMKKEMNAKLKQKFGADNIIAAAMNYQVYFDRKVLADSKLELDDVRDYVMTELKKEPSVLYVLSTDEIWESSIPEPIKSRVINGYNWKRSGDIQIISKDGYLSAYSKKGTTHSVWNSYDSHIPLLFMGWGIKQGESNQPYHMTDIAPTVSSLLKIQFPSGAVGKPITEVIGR
L506V  oxyanion analog dissociation constant (tungstate, free oxyanion; microfluidic competitive inhibition; in vitro, cell-free expressed; not given, derived from inhibition constants, unchanged parent 2230 nM; lower = stronger binding): 2360 nM
